{"data": "Measurements from different studies", "note": "Lines come from different studies, so protocols differ. Several values in a cell are separate wells, animals, samples, runs or records. ± marks the error that the study gave."}
{"SMILES": "CC(C)[C@H](NC(=O)CNC(=O)[C@H](CCC(N)=O)NC(=O)[C@H](C)N)C(=O)O", "system": "human, both sexes, plasma", "conditions": "intravenous infusion, 45 mg/kg/h, 2 h infusion, geometric mean", "measurement": "half-life", "result": "15 min"}
{"SMILES": "C=CC(=C)CC[C@]1(C)[C@H](C)C[C@H](OC(=O)CCCCCCC)[C@@]23C(=C[C@H](OC(C)=O)C[C@@H]12)[C@@H](OC(C)=O)O[C@H]3OC(C)=O", "assay": "haemolysis", "conditions": "500 µM", "measurement": "haemolysis", "result": "12.3%"}
{"SMILES": "CN(C)c1cc(CN2CCCCC2)c(O)c2c1C[C@H]1C[C@H]3[C@H](N(C)C)C(O)=C(C(N)=O)C(=O)[C@@]3(O)C(O)=C1C2=O", "system": "cynomolgus monkey, plasma", "conditions": "intravenous, 5 mg/kg", "measurement": "AUC", "result": "19500 ng·h/mL"}
{"SMILES": "C=CC(=O)OCCCCCCOC(C)(C)O[C@H]1C[C@H]2OC[C@@]2(OC(C)=O)[C@H]2[C@H](OC(=O)c3ccccc3)[C@]3(O)C[C@H](OC(=O)[C@H](O)[C@@H](NC(=O)c4ccccc4)c4ccccc4)C(C)=C([C@@H](OC(C)=O)C(=O)[C@]12C)C3(C)C", "system": "phosphate buffer, 40% acetonitrile", "conditions": "50 µM, pH 5.0, 37 °C", "measurement": "hydrolysis half-life", "result": "37 min"}
{"SMILES": "O=C(O)CN1CCNCCNCCN(CC(=O)O)CC1", "assay": "pH-potentiometric titration", "conditions": "25 °C, 0.1 M KCl", "measurement": "sum log K3 + log K4", "result": 5.6}
{"SMILES": "NCC(=O)NCC(=O)NCC(=O)NCC(=O)NCC(=O)NCC(=O)NCCCC[C@H](NC(=O)[C@@H]1CCCN1C(=O)[C@@H]1CSSCCC(=O)N[C@@H](Cc2ccc(O)cc2)C(=O)N[C@@H](Cc2ccccc2)C(=O)N[C@@H](CCCC(N)=O)C(=O)N[C@@H](CC(N)=O)C(=O)N1)C(=O)NCC(N)=O", "system": "male Sprague Dawley rats", "conditions": "sc, single dose", "measurement": "LOAEL (paleness, lethargy)", "result": "0.38 mg/kg"}
{"SMILES": "C[N+](C)(C)CC(CC(=O)[O-])OC(=O)CCC(=O)Nc1ccn([C@@H]2O[C@H](CO)[C@@H](O)C2(F)F)c(=O)n1 (stereo partly drawn)", "system": "THU-treated rat plasma", "conditions": "3200.00 ng/mL, -80 to 20 °C, three freeze-thaw cycles, high QC", "measurement": "measured concentration", "result": "3080 ± 54.5 ng/mL"}
{"SMILES": "O=C([O-])CN1CCN(CC(=O)[O-])CCN(CC(=O)NCC2CCC(C(=O)NC(Cc3ccc4ccccc4c3)C(=O)NCCCCC(NC(=O)NC(CCC(=O)O)C(=O)O)C(=O)O)CC2)CCN(CC(=O)[O-])CC1.[44Sc+3] (stereo not drawn)", "assay": "PET/CT dosimetry, OLINDA/EXM", "system": "human, liver", "measurement": "residence time", "result": "0.253 h and 0.067 h and 0.292 h"}
{"SMILES": "NC(=O)c1ccc(C(=O)NOCc2ccc(Sc3cccc(Cl)c3)c(C(F)(F)F)c2)cc1", "system": "male ICR mouse, plasma", "conditions": "intravenous, 10 mg/kg", "measurement": "Vz", "result": "0.276 L/kg"}
{"SMILES": "COc1cc(-c2nc3ccccc3s2)cc(CN(C)Cc2ccccn2)c1O", "assay": "UV-vis spectrophotometric titration", "system": "MeOH-water, MeOH up to 20%", "conditions": "50 µM, 0.1 M NaCl, HL to L-", "measurement": "pKa4", "result": 10}
{"SMILES": "CCOC(=O)N1CCC(Nc2nc3c(c(=O)n(C)c(=O)n3C)n2Cc2cccc(C)c2)CC1", "assay": "metabolic stability", "system": "rat, liver microsomes", "measurement": "half-life", "result": "2 min"}
{"SMILES": "O=c1nc(NO)ccn1[C@@H]1O[C@H](CO)[C@@H](O)[C@H]1O", "system": "male Wistar rats, plasma", "conditions": "oral, 30 mg/kg", "how to read": "reference: CFA-arthritic over normal rats", "measurement": "CL/F ratio", "result": "0.54 fold"}
{"SMILES": "CCCC[C@@H]1NC(=O)[C@@H](NC(=O)[C@H](CCC(=O)O)NC(=O)CNC(=O)CN2CCN(CC(=O)O)CCN(CC(=O)O)CCN(CC(=O)O)CC2)CCCCNC(=O)C[C@@H](C(N)=O)NC(=O)[C@H](C(C)C)NC(=O)[C@@H]2CCCN2C(=O)[C@H](CCCNC(=N)N)NC(=O)CNC(=O)[C@H](Cc2c[nH]c3ccccc23)NC(=O)[C@H](CCCNC(=N)N)NC(=O)[C@@H](Cc2ccccc2)NC(=O)[C@H](Cc2c[nH]cn2)NC(=O)[C@H](CCC(=O)O)NC1=O [gallium-67 labelled]", "system": "C57 mice with B16/F1 melanoma, kidneys", "conditions": "intravenous, 0.037 MBq, 2 h", "measurement": "tissue uptake", "result": "27.6 ± 7.87 %ID/g"}
{"SMILES": "CNc1cc(OC)c(Nc2nccc(-c3cn(C4CC4)c4ccccc34)n2)cc1NC(=O)CCSCC(NC(C)=O)C(=O)O (stereo not drawn)", "assay": "radio-HPLC, co-eluting peaks pooled", "system": "human, feces", "conditions": "dose not given, 0 to 240 h, sample holds 81.99% dose", "how to read": "reference: sample radioactivity", "measurement": "share of radioactivity", "result": "8.24%"}
{"SMILES": "CSCC(NC(=O)c1cc(Cl)ccc1Cl)C(=O)NC(CC(C)C)B(O)O (stereo not drawn)", "system": "Sprague-Dawley rat, both sexes", "conditions": "oral, 0.30 mg/kg of prodrug", "how to read": "reference: dose", "measurement": "cumulative urinary excretion", "result": "≤ 0.888%"}
{"SMILES": "C[C@H](CN(C)Cc1ccccc1)NC(=O)c1ccc(-c2noc(C(F)(F)[18F])n2)cc1", "assay": "PET imaging", "system": "female Sprague-Dawley rats, muscle", "conditions": "intravenous, 1 min", "measurement": "tissue uptake", "result": "0.4 ± 0.29 SUV"}
{"SMILES": "OCc1cn(Cc2ccc(-c3noc(-c4ccc(OCC[18F])c(C(F)(F)F)c4)n3)cc2)nn1", "system": "Lewis rat, female, bone", "conditions": "intravenous, 0.5 h", "measurement": "tissue uptake", "result": "0.45 ± 0.03 %ID/g"}
{"SMILES": "Cn1c(=O)oc2ccc(-c3ccc(CC(C#N)NC(=O)C4CNCCCO4)c(F)c3)cc21 (stereo not drawn)", "system": "human, plasma", "conditions": "10 mg once daily, steady state, geometric mean", "measurement": "trough concentration", "result": "18.7 ng/mL"}
{"SMILES": "CC(C)C[C@@H](N)C(=O)N[C@H](CC(=O)O)C(=O)N[C@@H](C(=O)N[C@H](Cc1ccccc1)C(=O)N[C@H](CC(C)C)C(=O)N[C@H](Cc1ccc(O)cc1)C(=O)N[C@H](CO)C(=O)N[C@H](CCC(=O)O)C(=O)O)C(C)C", "system": "4T1 and MC-38 tumour mice", "conditions": "dose not given", "measurement": "AST level", "result": "no effect"}
{"SMILES": "CCCCCCCCCCCCCCCC(=O)N[C@@H](CCCCN)C(=O)N[C@@H](CCCCN)C(=O)N[C@@H](CO)C(=O)N[C@@H](CCCNC(=N)N)C(=O)N[C@@H](C)C(=O)N[C@@H](CC(C)C)C(=O)N[C@@H](Cc1ccccc1)C(N)=O", "system": "cynomolgus monkey, female", "conditions": "10 mg/kg, day 5", "measurement": "activated partial thromboplastin time", "result": "27.3 ± 3.7 s"}
{"SMILES": "CCOc1ccc2c(c1)C(C)CC(C)(C)N2 (stereo not drawn)", "assay": "LC-MS/MS", "system": "Holstein cattle, subcutaneous fat", "conditions": "oral in feed, 50 mg/kg complete feed ethoxyquin, 42 days", "measurement": "highest tissue residue", "result": "8.7 ng/g"}
{"SMILES": "COC(=O)c1ccc(-c2cn(Cc3cc(Cl)ccc3O[11CH3])nn2)cc1", "assay": "PET, two-tissue compartment model", "system": "rhesus monkey, brain Insula", "conditions": "dose not given", "measurement": "distribution volume", "result": "0.619 mL/cm³"}
{"SMILES": "NC12CNCCNCC(NCc3ccc(CNC(=O)CCCC(=O)NCc4ccc(-c5nncnn5)cc4)cc3)(CNCCNC1)CNCCNC2.[64Cu+2]", "assay": "OLINDA dosimetry", "system": "ovaries", "conditions": "24 h pretargeting interval, with: huA33-TCO pretargeting", "measurement": "mean absorbed dose", "result": "0.0404 rad/mCi"}
{"SMILES": "[C-]#[O+].[C-]#[O+].[C-]#[O+].[C-]#[O+].[C-]#[O+].[C-]#[O+].[Cl-].[Cl-].[Re+].[Re+].c1cnc(-c2ncccn2)nc1", "assay": "cyclic voltammetry", "system": "0.1 M Na2SO4, gold electrode", "conditions": "scan rate 50 mV/s", "measurement": "redox potential", "result": "-0.621 V vs Ag/AgCl"}
{"SMILES": "COc1c2c(cc3oc(CO)cc(=O)c13)O[C@H](C(C)(C)O)C2", "system": "rat liver homogenate 30%", "conditions": "15 min, 37 °C", "measurement": "degradation", "result": "< 20%"}
{"SMILES": "CCOC(=O)CN1CCN(CC(=O)OCC)CCN(Cc2cc(-c3nc4ccccc4s3)cc(OC)c2O)CC1", "assay": "UV-Vis pH titration", "conditions": "25 °C, ionic strength 0.1 M NaCl", "measurement": "pKa3", "result": 9.42}
{"SMILES": "CC(C)c1cnc(-c2cc(Cl)ccc2F)cc1Nc1ccncc1C(=O)NC(CO)CO", "system": "human patients", "conditions": "oral, dose not given, worst grade 5", "measurement": "patients with any TRAE", "result": "0%"}
{"SMILES": "CCCC(CCC)NC(=O)c1ccc(O)c(OC)c1", "assay": "LC-MS", "system": "Sprague-Dawley rats, pooled sexes, plasma", "conditions": "oral, 200 mg/kg of parent drug, 1 h", "how to read": "reference: total peak area", "measurement": "metabolite peak area", "result": "24.3%"}
{"SMILES": "C=CC(=O)Nc1cc(Nc2nccc(-n3ccc4nc(OC)ccc43)n2)c(OC)cc1N(C)CCN(C)C", "system": "BALB/c nude mouse, H1975 intracranial tumour, brain tumour", "conditions": "oral, 60 mg/kg, 1 h", "measurement": "concentration", "result": "5060 ng/g"}
{"SMILES": "COCCOCCOCCOCCOCCOCCOCCOCCC(=O)NCCCc1cc2cc3nc(cc4[nH]c(cc5nc(c(OC)c1[nH]2)C(=O)C5(C)C)cc4CCc1ccc(C(=O)O)cc1)CC3(C)C", "system": "water with 5% DMF", "conditions": "room temperature", "measurement": "Qy emission FWHM", "result": "32 nm"}
